Published values pooled from the literature.
Each line is one published result; not all experiments were run side by side. “And” joins repeats or separate records; there may be more than shown. Numbers after ± are the reported error.

`N#Cc1cccc(-c2ccc3ncc(-c4cc(F)cc(F)c4)c(N4CCC(NC(=O)OC5OC(C(=O)O)C(O)C(O)C5O)CC4)c3c2)c1O` (centres unmarked) gave a radioactivity recovered of 0.17 %dose (human, urine; oral, 20 mg, 72 h, 14C-paltusotine dosed).
The tracer uptake of `[123I]c1ccc2nc(-c3ccc(-n4ccnn4)nc3)cn2c1` is reported as 0.23 %ID/g (male Wistar rat, liver; intravenous, 4 MBq, 3 h).
`C(=N\Nc1nc(Nc2ccccc2)nc(N2CCOCC2)n1)/c1c[nH]c2ccccc12` gave a translation activity of 114% and 91.6% (Trypanosoma cruzi; reporter mRNA translation, inhibitor, measured: Renilla luciferase mRNA; cell-free extract; concentration not given, test 2; baseline: positive over negative control).
`Cc1cc(NC(=O)[C@H](O)c2cc(F)cc(F)c2)ccc1-c1cnc(N)c(C(=O)NC(C)C)c1` gave an AUC(0-inf) of 1210 ng·h/mL (female nude mouse, plasma; oral, 3 mg/kg, single dose).
For `CC(C)(O)c1ncc([S@](N)(=O)=NC(=O)Nc2c3c(cc4c2CCC4)CCC3)s1`, “total adverse events” read 33% (healthy human; oral, 300 mg single dose, capsule formulation).
`CC(C)C[C@H](NC(=O)[C@H](CCCCN)NC(=O)C1CCC=CCCC(NC(=O)[C@H](CCCCN)NC(=O)[C@@H](N)CC(C)C)C(=O)N[C@@H](CCCCN)C(=O)NC2CCC=CCCC(NC(=O)[C@H](CCCCN)NC(=O)CNC(=O)[C@H]3CCCN3C(=O)[C@H](CCCCN)NC2=O)C(=O)N[C@@H](CCCCN)C(=O)N1)C(N)=O` (some centres unmarked) has a retention time of 14.3 min (RP-HPLC C18; hydrophobicity).
For `CNC(NN=Cc1ccc([N+](=O)[O-])o1)=[S+][Au-][Cl]`, the solution stability was no less than 1 week (1H NMR; DMSO-d6; time compound intact).
For `CC(C)Cn1cc(Cc2cccc(OC(C)(C)C(=O)O)c2)c2ccc(C(=O)N[C@@H](C)c3cc(F)cc(C(C)(C)C)c3)cc21`, the half-life was 57 min (human liver microsomes; 1 µM, together with: microsomes 1 mg/mL).
Under “log K ZnL”, `O=C(O)CN1CCN(CC(=O)O)CCN(CC(O)CN(CC(O)CN2CCN(CC(=O)O)CCN(CC(=O)O)CCN(CC(=O)O)CC2)C[C@H](O)[C@@H](O)[C@H](O)[C@H](O)CO)CCN(CC(=O)O)CC1` (some centres unmarked) is recorded as 18 (pH-potentiometry; 0.15 M NaCl; 25 °C).
The translation activity of `O=C(Nc1ccon1)C12CC3CC(C1)CC(n1cnc([N+](=O)[O-])n1)(C3)C2` is reported as 100% (Trypanosoma cruzi; reporter mRNA translation, inhibitor, measured: Renilla luciferase mRNA; cell-free extract; concentration not given, test 3; baseline: positive over negative control).
`CC(C)c1cc(C(=O)NCCN(C)C)c2cnn(C(C)C)c2n1` has a microsomal CLint of 116 µL/min/mg (metabolic stability; mouse, liver microsomes).
`CN(O)C(=O)CCC(=O)NCCCN(CCCCN(CCCNC(=O)CCC(=O)N(C)O)C(=O)CCC(=O)N(C)O)C(=O)CCC(=O)N(C)O.[89Zr]` gave a tracer uptake of 0.01 %ID/g (mouse, fat; 24 h).
For `C=C[C@]1(C)C[C@@H](OC(=O)CSc2ccc(NC(=O)c3ccco3)cc2)[C@]2(C)[C@H](C)CC[C@]3(CCC(=O)[C@H]32)[C@@H](C)[C@@H]1O`, the plasma concentration was 1.33 ng/mL and 0.0758 ng/mL and 0.301 ng/mL and 1.6 ng/mL (Mycoplasma gallisepticum-infected chickens, plasma; intramuscular, 5 mg/kg, 24 h).
`CC(C)(C)C(=O)Nc1ccc2[nH]c(CN3CCC(N(CCCN4CCOCC4)CC4OC(n5cnc6c(N)ncnc65)C(O)C4O)CC3)nc2c1` (centres unmarked) gave a concentration of 1290 ng/mL (male Sprague-Dawley rat, plasma; intraperitoneal, 20 mg/kg, 45 min).
`O=C(Nc1cnccc1-c1ccc([18F])nc1)c1ccnc(NC(=O)C2CC2)c1` gave an SUV of 0.107 (mice, transgenic, GSK-3β, early-stage, salivary gland; intravenous, dose not given, 120 min).
With `COCC1CN(C2CCN(c3cc(OC)c(Nc4ncc(Br)c(Nc5ccc6c(c5P(C)(C)=O)OCCO6)n4)cc3C)CC2)C1` the AUC(0-inf) was 14200 ng·h/mL (EGFR-mutant NSCLC patients, plasma; oral, 90 mg single dose, geometric mean).
For `COc1ccc2c(c1)CCn1c[n+]3c(c1-2)-c1ccc(OC)cc1CC3`, the Basophils was 4 ± 2.69% (female NSG mice, blood; 6 mg/kg, day 20, 5 days per week).

Repeated from above:
`N#Cc1cccc(-c2ccc3ncc(-c4cc(F)cc(F)c4)c(N4CCC(NC(=O)OC5OC(C(=O)O)C(O)C(O)C5O)CC4)c3c2)c1O` (centres unmarked) gave a radioactivity recovered of 0.17 %dose (human, urine; oral, 20 mg, 72 h, 14C-paltusotine dosed).
For `CNC(NN=Cc1ccc([N+](=O)[O-])o1)=[S+][Au-][Cl]`, the solution stability was no less than 1 week (1H NMR; DMSO-d6; time compound intact).
